Experimental data of several laboratories.
Numbered parts are unrelated; each lists some results of a single study. Substitutions count along the parent as printed.

Set 1
Target: ABI1, truncated, D143A, DHFR fusion (Arabidopsis thaliana)
Method: DHFR PCA, deep sequencing
Sample: yeast
Notes: methotrexate growth selection, single substitutions
Added: (+)-ABA 0.0091 µM
Reference: wild-type fitted maximum
Direction: higher = stronger binding
Starting sequence: PYL1, truncated, DHFR fusion (Arabidopsis thaliana); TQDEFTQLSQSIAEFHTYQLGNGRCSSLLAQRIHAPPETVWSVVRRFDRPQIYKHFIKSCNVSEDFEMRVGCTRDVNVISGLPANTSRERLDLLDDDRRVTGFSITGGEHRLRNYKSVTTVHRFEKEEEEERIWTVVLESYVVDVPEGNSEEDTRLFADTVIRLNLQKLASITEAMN
`N114M`: “relative binding score” 1.09%.
`V142D` — result for “relative binding score”: 6.06%.
`T120Y`: “relative binding score” -5.69%.
`D3S`: “relative binding score” 24.6%.
`C72Q`: “relative binding score” 32%.
`E14L` — result for “relative binding score”: 4.16%.
Under “relative binding score”, `P36G` is recorded as 3.72%.
Under “relative binding score”, `E89M` is recorded as 3.53%.

Set 2
Target: CCND2, cyclin fold, Cln2 fusion (human)
Method: yeast growth competition, sequencing
Sample: yeast
Notes: weak parent motif
Reference: not given
Direction: higher = stronger binding
Starting sequence: CDKN1B docking peptide (human); PSACRNLFGPVDH; partner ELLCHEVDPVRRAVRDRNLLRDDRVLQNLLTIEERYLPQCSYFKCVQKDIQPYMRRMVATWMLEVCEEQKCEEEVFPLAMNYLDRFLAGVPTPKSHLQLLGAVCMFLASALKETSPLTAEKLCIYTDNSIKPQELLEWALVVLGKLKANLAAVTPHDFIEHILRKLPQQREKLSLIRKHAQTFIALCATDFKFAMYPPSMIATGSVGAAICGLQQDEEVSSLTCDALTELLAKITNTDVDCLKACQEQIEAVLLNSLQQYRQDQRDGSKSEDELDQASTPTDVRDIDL
`A3I`: “normalised enrichment score” 0.0662.
`R5N` — result for “normalised enrichment score”: -0.0579.
For `R5S`, “normalised enrichment score” read 0.0562.
`C4A` — result for “normalised enrichment score”: 0.162.
`S2P` — result for “normalised enrichment score”: 0.135.

Set 3
Target: Protein C-ets-1 (ETS1, Homo sapiens, UniProt P14921, residues 1-441, Y397A, full length assumed)
Method: protein-binding microarray
Molecule type: double-stranded DNA, one strand shown
Sample: in vitro
Tested at: not given
Notes: k-mer, scored over probes, only values ≥0.25
Direction: higher = stronger binding
Target sequence (chain): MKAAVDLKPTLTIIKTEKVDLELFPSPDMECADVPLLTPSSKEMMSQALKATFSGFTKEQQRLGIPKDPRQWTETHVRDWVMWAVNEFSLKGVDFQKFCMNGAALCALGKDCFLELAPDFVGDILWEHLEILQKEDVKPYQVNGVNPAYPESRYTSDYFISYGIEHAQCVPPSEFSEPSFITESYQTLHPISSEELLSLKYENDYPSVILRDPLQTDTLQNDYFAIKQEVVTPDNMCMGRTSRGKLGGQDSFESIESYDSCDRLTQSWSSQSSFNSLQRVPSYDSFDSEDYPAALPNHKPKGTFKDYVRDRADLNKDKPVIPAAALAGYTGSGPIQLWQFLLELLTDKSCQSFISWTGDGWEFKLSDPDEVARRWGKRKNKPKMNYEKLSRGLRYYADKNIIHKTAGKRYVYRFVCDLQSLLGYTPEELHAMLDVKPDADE
`ACGCGTCG` has an E-score of 0.265.
For `GGAAATGA`, the E-score was 0.307.
`ATTGCCGC` has an E-score of 0.264.
For `ACCCCTCC`, the E-score was 0.31.
With `CAACAATG` the E-score was 0.312.
For `ATTGTTAC`, the E-score was 0.339.
For `AGCAAAAC`, the E-score was 0.267.

Further values, each from its own experiment
With `PhoQ, residues 284 288 289 292 302 303 ALSMDL` the fold induction was 5.39 (PhoP, residues 12 14 15 18 19 VHSCL (Escherichia coli, UniProt P23836); Sort-seq, item: YFP reporter; E. coli; PhoQ-PhoP variant library, added: 10 µM Mg2+; reference: high Mg2+ state, higher = stronger signaling).

Some of these lines once more (set 3):
For `GGAAATGA`, the E-score was 0.307.
`ATTGCCGC` has an E-score of 0.264.
